Measured values from different studies.
Protocols differ between the studies behind these lines. “And” joins repeats or separate records; there may be more than shown. ± gives the spread as reported.
U2AF2: U2AF2 148-342 (Homo sapiens, UniProt P26368)
UniProt P26368, sequence (whole entry, looked up): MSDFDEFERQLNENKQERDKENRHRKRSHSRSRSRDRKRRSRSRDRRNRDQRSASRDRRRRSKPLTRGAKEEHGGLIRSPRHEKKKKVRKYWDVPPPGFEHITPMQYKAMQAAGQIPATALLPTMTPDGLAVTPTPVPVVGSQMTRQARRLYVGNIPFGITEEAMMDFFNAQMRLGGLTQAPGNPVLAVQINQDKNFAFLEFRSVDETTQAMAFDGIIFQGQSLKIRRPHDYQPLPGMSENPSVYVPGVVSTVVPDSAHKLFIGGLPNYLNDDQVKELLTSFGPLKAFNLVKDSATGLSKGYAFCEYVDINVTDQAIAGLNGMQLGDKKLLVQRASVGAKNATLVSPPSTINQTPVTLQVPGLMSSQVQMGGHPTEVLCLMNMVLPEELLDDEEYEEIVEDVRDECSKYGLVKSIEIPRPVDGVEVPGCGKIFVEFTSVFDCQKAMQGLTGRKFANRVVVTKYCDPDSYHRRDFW
B1: TIMP1 E156V/L152P/L133R/E67W/M66W/L34G (Homo sapiens, UniProt P01033); chain CTCVPPHPQTAFCNSDLVIRAKFVGTPEVNQTTGYQRYEIKMTKMYKGFQALGDAADIRFVYTPAWWSVCGYFHRSHNRSEEFLIAGKLQDGLLHITTCSFVAPWNSLSLAQRRGFTKTYTVGCEECTVFPCRSIPCKLQSGTHCLWTDQLPQGSVKGFQSRHLACLPREPGLCTWQSLRSQIA
B2: peroxiredoxin-1 (human); sequence looked up; chain SSGNAKIGHPAPNFKATAVMPDGQFKDISLSDYKGKYVVFFFYPLDFTFVCPTEIIAFSDRAEEFKKLNCQVIGASVDSHFCHLAWVNTPKKQGGLGPMNIPLVSDPKRTIAQDYGVLKADEGISFRGLFIIDDKGILRQITVNDLPVGRSVDETLRLVQAFQFTDKHGEVCPAGWKPGSDTIKPDVQKSKEYFSKQK
UniProt P20936, sequence (whole entry, unmodified, looked up): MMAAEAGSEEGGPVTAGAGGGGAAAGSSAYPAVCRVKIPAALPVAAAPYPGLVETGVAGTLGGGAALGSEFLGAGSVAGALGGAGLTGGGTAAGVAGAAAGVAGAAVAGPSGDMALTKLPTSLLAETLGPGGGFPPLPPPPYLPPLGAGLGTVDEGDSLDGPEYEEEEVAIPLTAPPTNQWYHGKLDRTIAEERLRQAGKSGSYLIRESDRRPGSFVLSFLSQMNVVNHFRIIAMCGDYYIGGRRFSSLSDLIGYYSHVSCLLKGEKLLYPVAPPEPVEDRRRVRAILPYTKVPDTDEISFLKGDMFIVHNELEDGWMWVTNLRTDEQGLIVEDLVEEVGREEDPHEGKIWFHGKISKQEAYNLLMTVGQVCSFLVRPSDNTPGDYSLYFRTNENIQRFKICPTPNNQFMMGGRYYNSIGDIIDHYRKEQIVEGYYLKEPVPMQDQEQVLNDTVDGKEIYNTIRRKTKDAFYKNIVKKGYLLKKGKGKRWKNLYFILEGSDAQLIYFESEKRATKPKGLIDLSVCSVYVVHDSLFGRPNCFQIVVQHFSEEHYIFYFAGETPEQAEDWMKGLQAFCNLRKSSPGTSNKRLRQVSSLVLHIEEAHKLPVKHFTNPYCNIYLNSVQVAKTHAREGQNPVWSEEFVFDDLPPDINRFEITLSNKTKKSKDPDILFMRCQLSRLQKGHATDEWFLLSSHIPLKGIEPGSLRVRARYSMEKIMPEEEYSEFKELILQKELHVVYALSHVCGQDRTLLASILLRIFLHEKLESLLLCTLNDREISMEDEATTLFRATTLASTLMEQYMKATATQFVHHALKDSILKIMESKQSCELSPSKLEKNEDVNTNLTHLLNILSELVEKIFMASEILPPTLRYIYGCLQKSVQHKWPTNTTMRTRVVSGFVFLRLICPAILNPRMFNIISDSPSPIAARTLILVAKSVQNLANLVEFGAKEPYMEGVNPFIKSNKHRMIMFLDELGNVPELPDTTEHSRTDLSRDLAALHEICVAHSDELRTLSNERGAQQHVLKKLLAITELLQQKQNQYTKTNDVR
UniProt Q9HC52, sequence (whole entry, looked up): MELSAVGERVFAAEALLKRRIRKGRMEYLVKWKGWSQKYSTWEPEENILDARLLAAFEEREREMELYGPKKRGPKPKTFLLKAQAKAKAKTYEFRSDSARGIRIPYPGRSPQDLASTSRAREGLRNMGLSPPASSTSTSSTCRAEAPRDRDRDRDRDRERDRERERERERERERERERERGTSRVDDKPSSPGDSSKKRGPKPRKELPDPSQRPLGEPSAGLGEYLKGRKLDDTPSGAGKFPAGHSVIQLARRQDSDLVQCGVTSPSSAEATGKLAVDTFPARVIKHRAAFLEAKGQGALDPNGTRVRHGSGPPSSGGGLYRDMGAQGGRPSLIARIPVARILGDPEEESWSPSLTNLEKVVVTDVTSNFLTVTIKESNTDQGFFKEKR
UniProt P13393, sequence (whole entry, looked up): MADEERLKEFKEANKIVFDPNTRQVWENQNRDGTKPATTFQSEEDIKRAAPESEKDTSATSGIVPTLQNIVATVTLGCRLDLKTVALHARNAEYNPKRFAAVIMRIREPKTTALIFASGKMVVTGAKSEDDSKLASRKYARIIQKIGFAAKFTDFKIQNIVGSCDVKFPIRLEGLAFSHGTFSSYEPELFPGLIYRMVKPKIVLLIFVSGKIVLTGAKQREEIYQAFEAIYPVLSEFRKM
UniProt P08253, sequence (whole entry, looked up): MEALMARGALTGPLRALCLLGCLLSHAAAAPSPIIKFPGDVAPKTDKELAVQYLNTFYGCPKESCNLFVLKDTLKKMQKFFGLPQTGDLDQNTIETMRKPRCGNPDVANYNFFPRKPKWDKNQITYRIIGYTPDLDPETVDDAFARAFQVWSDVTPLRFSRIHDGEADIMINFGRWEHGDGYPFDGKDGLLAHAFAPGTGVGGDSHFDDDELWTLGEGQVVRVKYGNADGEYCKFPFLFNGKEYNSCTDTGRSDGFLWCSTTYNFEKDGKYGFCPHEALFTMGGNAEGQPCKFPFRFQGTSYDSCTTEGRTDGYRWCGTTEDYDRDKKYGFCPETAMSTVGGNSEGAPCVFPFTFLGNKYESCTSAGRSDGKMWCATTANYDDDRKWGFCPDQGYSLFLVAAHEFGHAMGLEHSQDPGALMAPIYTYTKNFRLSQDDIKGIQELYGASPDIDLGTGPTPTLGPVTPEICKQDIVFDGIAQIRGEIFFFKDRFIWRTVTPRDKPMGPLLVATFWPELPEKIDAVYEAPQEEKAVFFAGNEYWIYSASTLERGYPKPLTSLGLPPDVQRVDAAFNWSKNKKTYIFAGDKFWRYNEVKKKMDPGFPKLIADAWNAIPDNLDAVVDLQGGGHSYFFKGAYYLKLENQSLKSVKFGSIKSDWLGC
UniProt Q03718, sequence (whole entry, looked up): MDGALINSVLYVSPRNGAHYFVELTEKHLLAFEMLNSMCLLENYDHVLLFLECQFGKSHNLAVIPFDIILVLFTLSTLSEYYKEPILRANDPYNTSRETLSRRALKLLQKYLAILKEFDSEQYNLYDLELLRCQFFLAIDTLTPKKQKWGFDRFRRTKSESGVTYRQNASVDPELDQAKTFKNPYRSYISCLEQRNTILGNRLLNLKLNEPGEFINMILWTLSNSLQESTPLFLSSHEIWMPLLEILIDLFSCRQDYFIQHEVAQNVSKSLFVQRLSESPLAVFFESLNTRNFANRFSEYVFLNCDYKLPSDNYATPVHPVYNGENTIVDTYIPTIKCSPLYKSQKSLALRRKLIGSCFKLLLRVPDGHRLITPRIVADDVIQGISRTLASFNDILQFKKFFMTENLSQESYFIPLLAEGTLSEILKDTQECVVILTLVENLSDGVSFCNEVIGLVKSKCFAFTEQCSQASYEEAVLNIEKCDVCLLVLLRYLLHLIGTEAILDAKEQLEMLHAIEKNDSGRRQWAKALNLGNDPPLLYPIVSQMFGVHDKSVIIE
UniProt Q99496, sequence (whole entry, looked up): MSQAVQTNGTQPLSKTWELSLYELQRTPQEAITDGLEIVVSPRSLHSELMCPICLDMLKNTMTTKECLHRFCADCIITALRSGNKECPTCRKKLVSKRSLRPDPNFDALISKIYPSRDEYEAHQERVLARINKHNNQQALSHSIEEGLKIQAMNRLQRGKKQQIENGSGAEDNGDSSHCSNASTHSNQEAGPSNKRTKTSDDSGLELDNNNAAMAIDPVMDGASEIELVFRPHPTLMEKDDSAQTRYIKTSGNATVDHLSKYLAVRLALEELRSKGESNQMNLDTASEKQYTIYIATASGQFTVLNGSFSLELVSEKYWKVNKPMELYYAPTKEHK
UniProt Q96NY8, sequence (whole entry, looked up): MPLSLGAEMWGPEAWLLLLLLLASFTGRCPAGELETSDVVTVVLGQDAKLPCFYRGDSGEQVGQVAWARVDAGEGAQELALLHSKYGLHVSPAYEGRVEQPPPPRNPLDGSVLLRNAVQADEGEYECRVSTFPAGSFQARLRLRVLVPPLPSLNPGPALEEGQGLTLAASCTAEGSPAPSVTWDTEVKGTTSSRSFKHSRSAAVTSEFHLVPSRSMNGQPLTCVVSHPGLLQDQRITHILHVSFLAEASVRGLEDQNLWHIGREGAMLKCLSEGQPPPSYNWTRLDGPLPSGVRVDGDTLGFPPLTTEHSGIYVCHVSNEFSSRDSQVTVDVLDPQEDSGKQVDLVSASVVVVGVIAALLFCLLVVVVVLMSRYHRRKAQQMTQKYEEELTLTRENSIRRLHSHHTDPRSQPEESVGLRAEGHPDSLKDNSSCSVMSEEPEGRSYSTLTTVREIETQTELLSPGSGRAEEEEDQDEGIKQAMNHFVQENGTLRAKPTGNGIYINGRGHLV
UniProt P40381, sequence (whole entry, looked up): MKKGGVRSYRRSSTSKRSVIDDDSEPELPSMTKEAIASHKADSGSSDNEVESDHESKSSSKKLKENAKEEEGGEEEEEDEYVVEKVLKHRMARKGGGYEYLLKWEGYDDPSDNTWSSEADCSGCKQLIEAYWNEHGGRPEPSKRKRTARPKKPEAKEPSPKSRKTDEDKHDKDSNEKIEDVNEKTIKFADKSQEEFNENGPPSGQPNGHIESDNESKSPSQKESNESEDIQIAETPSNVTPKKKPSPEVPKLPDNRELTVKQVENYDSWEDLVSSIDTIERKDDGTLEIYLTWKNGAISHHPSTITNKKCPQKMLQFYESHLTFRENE

`ACPFGCMKNASWPIWCTNK (Bicycle 66 bicyclic peptide; C-terminal amide/TATA scaffold, three cysteines cyclised)` gave a Ki of > 10 µM (NECTIN4 32-349 (Homo sapiens, UniProt Q96NY8); fluorescence polarisation; peptide).
For `NSE5 (Saccharomyces cerevisiae, UniProt Q03718)`, interaction screen read “cross-linked” (SMC6 (Saccharomyces cerevisiae, UniProt Q12749); cross-linking MS; hits only).
`Mcm2-7, DyLight 650 on Mcm6 N-terminus (Saccharomyces cerevisiae)`: “events reaching high recruitment state” 152 of 162 events (ORC unphosphorylated, DyLight 550 on Orc6 (Saccharomyces cerevisiae); smFRET).
`DNM1L K38A (Homo sapiens)` — result for “relative GTPase activity”: > 3 fold (DNM1L 1-699 (Homo sapiens, UniProt O00429-4); GTPase activity; 1.3 µM total, varying Drp1-WT to Drp1-K38A ratios, with: actin filaments 1 µM; higher = more activity).
`DPSDYAEPMDAVVKPRNEEENIYSVPHDS (ARHGAP35 residues 1083-1111; pY1087/pY1105, N-acetyl, C-amide)`: “molecule per partner” 0.932 and 0.95 and 0.967 (RASA1 174-444 C236S/C261S/C372S/C402S/R427Q (Homo sapiens, UniProt P20936); ITC; peptide).
`FGB (Homo sapiens, UniProt P02675)`: cross-linked residues “K367 to K99” (CCDC126 (Homo sapiens, UniProt Q96EE4); cross-linking MS; with: DSSO).
With `DYNLRB1/DYNLL1/DYNLT1/DYNC1LI2/DYNC1I2/DYNC1H1 dynein-1 complex (Homo sapiens)` the Ka was > 1.6e+06 M⁻¹ (HOOK3/NINL chimera Hook3 CC, NINL LIC-BD, HaloTag; pull-down).
For `B1`, the Ki was 0.007 µM (MMP2 110-452 (Homo sapiens, UniProt P08253); MMP-2 inhibition, inhibitor, Morrison tight-binding equation; designed binder).
`GUUUUUGCA (ssRNA)` has a Kd of 7.71 µM (U2AF2; sequencing of bound RNA; RNA; motif only).
`ALB (Homo sapiens, UniProt P02768)`: cross-linked residues “K236 to K314” (DOCK2 (Homo sapiens, UniProt Q92608); cross-linking MS; with: DSSO).
With `TACTTCAGTTGTGAAGTGTAACAAGGTCTTATAATTCAAGTCAATCGGTCC (dsDNA; 5'-amino-C6 primer)` the Kd was 0.00252 ± 0.00026 µM (SPT15 full length assumed (Saccharomyces cerevisiae, UniProt P13393); array; double-stranded DNA, one strand shown; TBP alone).
For `AUUUUUCUU (ssRNA)`, the Kd was 12.2 µM (U2AF2; sequencing of bound RNA; RNA; motif only).
For `ACTA1 (Gallus gallus, UniProt P68139)`, “detachment rate without load” read 120 s⁻¹ (MYH1 (Oryctolagus cuniculus, UniProt A0A5F9CQ93); laser three-bead trap; Bell-bond fit, Pi 5 mM, with: ATP 100 µM).
`FGA (Homo sapiens, UniProt P02671)`: cross-linked residues “K432 to K272” (POPDC1 (Homo sapiens, UniProt Q8NE79); cross-linking MS; with: DSSO).
For `RNF2 (Homo sapiens, UniProt Q99496)`, interaction screen read “cross-linked” (CBX8 (Homo sapiens, UniProt Q9HC52); cross-linking MS; hits only).
`human MCM7` — result for “log2 fold change”: -0.45 (CYB5R4 knockout human cells; PP6 interaction, 3xFLAG-PP6C IP-MS; concentration not given; baseline: CYB5R4 KO over parental).
`swi6 (Schizosaccharomyces pombe, UniProt P40381)` has a dwell time of 2.2 s (hht1 histone H3, K9 methylation (Schizosaccharomyces pombe, UniProt P09988); single-molecule imaging; in cells).
`B2 (peroxiredoxin-1)`: “log2 fold change” 0.18 (CYB5R4 knockout human cells; PP4 interaction, 3xFLAG-PP4C IP-MS; concentration not given; baseline: CYB5R4 KO over parental).
For `CALCA CGRP 8-? (Homo sapiens)`, the pKB was 1.9 nM (CALCRL/RAMP1 whole, on cells, myc, HA tags (human); cAMP accumulation, antagonist; Cos7; with: CGRP).

A few entries again:
`swi6 (Schizosaccharomyces pombe, UniProt P40381)` has a dwell time of 2.2 s (hht1 histone H3, K9 methylation (Schizosaccharomyces pombe, UniProt P09988); single-molecule imaging; in cells).
For `NSE5 (Saccharomyces cerevisiae, UniProt Q03718)`, interaction screen read “cross-linked” (SMC6 (Saccharomyces cerevisiae, UniProt Q12749); cross-linking MS; hits only).
`ACPFGCMKNASWPIWCTNK (Bicycle 66 bicyclic peptide; C-terminal amide/TATA scaffold, three cysteines cyclised)` gave a Ki of > 10 µM (NECTIN4 32-349 (Homo sapiens, UniProt Q96NY8); fluorescence polarisation; peptide).
